Experimental data from different studies.
A part holds a random share of what one study measured. Changes are numbered by the printed parent chain.

Series 1 — target: CCNF, cyclin fold, Cln2 fusion (human); technique: yeast growth competition, sequencing; matrix: yeast; notes: weak parent motif; baseline: not given; reading: higher = stronger binding
Parent: CDAN1 docking peptide (human); RGARSQLFPPTEA
Substitution | normalised enrichment score
RGARSQLFAPTEA [P9A] | 0.415
RAARSQLFPPTEA [G2A] | 0.433
RGARSQLFPPAEA [T11A] | 0.585
RGARSALFPPTEA [Q6A] | 0.271
RGARSQAFPPTEA [L7A] | -0.0436

Series 2 — target: UBE2G1 UBC core domain (UniProt P62253); technique: yeast two-hybrid; matrix: yeast; notes: mostly zero background; baseline: not given; reading: higher = stronger interaction
UniProt P62253, sequence (whole entry, looked up): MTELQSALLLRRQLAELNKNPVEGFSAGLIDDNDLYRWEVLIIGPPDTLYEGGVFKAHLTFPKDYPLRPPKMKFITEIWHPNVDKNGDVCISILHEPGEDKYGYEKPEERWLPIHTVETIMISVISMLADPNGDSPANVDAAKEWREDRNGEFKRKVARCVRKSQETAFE
B1: TRIM22 RING domain (UniProt Q8IYM9); chain VKVDIEKEVTCPICLELLTEPLSLDCGHSFCQACITAKIKESVIISRGESSCPVCQTRFQPGNLRP
B2: TRIM31 RING domain (UniProt Q9BZY9); chain FVNKLQEEVICPICLDILQKPVTIDCGHNFCLKCITQIGETSCGFFKCPLCKTSVRKNAIRF
B3: RNF122 RING domain (UniProt Q9H9V4); chain AKKLQLYGQTCAVCLEDFKGKDELGVLPCQHAFHRKCLVKWLEVRCVCPMCNKPIASPSEAT
B4: TRIM26 RING domain (UniProt Q12899); chain PLRSLEEEVTCSICLDYLRDPVTIDCGHVFCRSCTTDVRPISGSRPVCPLCKKPFKKENIRP
B5: RNF2 RING domain (UniProt Q99496); chain SPRSLHSELMCPICLDMLKNTMTTKECLHRFCADCIITALRSGNKECPTCRKKLVSKRSLR
Molecule | lacZ reporter activity
QVQSRTKIEECVVCSDKKAAVLFQPCGHMCACENCANLMKKCVQCRAVVERRVPFI (MIB1 RING domain (UniProt Q86YT6)) | 0
B1 (TRIM22 RING domain) | 0
YCEMGSTFQLCKICAENDKDVKIEPCGHLMCTSCLTAWQESDGQGCPFCRCEIKGTEPII (CBLB RING domain (UniProt Q13191)) | 0
B2 (TRIM31 RING domain) | 0
B3 (RNF122 RING domain) | 0
B4 (TRIM26 RING domain) | 0
B5 (RNF2 RING domain) | 0

Series 3 — technique: RNA Bind-n-Seq; form: RNA; matrix: in vitro; concentration: 365 nM; baseline: no-protein control; reading: higher = stronger binding
Target: RNA binding protein fox-1 homolog 2, RRM domain, GST-SBP tag (RBFOX2, Homo sapiens, UniProt O43251-10, residues 100-194)
Notes: natural RNA segment, single round, ends assumed
All sequences stand within: GGGAGUUCUACAGUCCGACGAUC … UGGAAUUCUCGGGUGCCAA
Construct (chain): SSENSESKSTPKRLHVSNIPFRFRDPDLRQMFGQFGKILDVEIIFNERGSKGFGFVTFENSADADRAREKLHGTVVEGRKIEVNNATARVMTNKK
Strand | RBNS enrichment (R)
AUUCUGAUUACAUGCAGGUUCCUGGAAGGAGUGUGUCAAUCAUUUAGCUGCAUGUCAUCGGCUCAGCAGUGGGAAGGAAAGGGUACUGCUCUGACCUUGUGUAUUCUGAC | 1.3
GCAUCCUGAUUUUUCUGUAGGAACUUUUCUUUGGCAGACCAAGUGAAGACUCAGGAAUGGUGUGCAUUAUAAAUGACACACAUUGCCACUUGUGUAGAUAUUUUUAAGUU | 1.12
ACCCAUCAUACUACUAUACUUCUGGGUUGAACAGAAUUAUUUAUGCAGAAUAAUUCAAUUGAAUAUCCAUCACUUAAAUACAGUGACAGGACAGCAACUUCAGGGAUCUG | 0.315
UUGUAGACUUUGGUAGUGCAACAUAUGAUGACGAACAUCACAGUACAUUGGUAUCUACAAGACAUUAUAGAGCACCUGAAGUUAUUUUAGCCCUAGGGUGGUCCCAACCA | 0.285
AGGGAAAUUAUUGCAGAAGAAUGCCUUUCCCUCAUUUUAUAACUUUAAAAACUUGGAUUAACCACUCAAUGUCCACUUUCUUUGACUUACAGUAUAACCAUGUAGCCAAU | 0.896
UUUGUUCUGGCAGUGAGUCAAGUGUCCAGCAUUUUUUCAUAAGUGUUUUUUAAAAUUGUUCUCCAGCAUUUUAUGGCUCCUCCCUCCCAUGUCCUCAGACCCAGCAAAAG | 0.67
GGGGGGCUAGGGCAGGAAGGGGACUGGAGGGCGGGUAGGACCUCCACAGCCCCUUCCCAAACAGCCUCUUAUCCCUUACACCCCUUUCCUCCUCUCUUCCCCCAUGGUAG | 0.43
GCUGGAAAUUCAUCACAACCUGAGGCCCAGGAUCUGCUCUGUGCCGGUCCUCUGGGCAGUGUGGGGUGCAGAAUGGGGUGCCUAGGCCUGAGCGUUGCCUGGAGCCUAGG | 0.333

Series 4 — technique: DHFR PCA, deep sequencing; matrix: yeast; with: (+)-ABA 0.11 µM; baseline: wild-type fitted maximum; reading: higher = stronger binding
Target: ABI1, truncated, D143A, DHFR fusion (Arabidopsis thaliana)
Notes: methotrexate growth selection, single substitutions
Parent: PYL1, truncated, DHFR fusion (Arabidopsis thaliana); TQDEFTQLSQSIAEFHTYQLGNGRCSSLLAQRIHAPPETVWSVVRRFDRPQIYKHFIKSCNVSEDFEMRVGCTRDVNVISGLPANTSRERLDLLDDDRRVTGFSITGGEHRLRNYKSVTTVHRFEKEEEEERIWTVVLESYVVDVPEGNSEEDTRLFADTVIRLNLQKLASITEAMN
Substitution | relative binding score [%]
T173R | 2.4
V100R | -7.11
M176Y | 7.79
R163N | -5.32
Q10W | 4.71
V142Y | -2.01
E64M | 10.4
T120L | -6.4
E127Q | 46.5
L20P | 44.8
E67P | 6.24
L8S | -0.0443
W41Q | -2.26
G148W | 2.93
A175V | 15.7
R49L | 3.34
L28T | 5.6

For quick reference, copied from above (series 4):
Substitution | relative binding score [%]
W41Q | -2.26
E127Q | 46.5
T173R | 2.4
R49L | 3.34
E64M | 10.4
